Experimental data of several laboratories.
Each line is one published result; not all experiments were run side by side. Several values in a cell are separate wells, animals, samples, runs or records. Numbers after ± are the reported error.
Target: C-X-C chemokine receptor type 4 (CXCR4, Homo sapiens, UniProt P61073)

CC(=O)[O][Cu+].CN1CCN2CCN(CC1)CCN(Cc1ccccc1)CC2 — IC50 (calcium signal, antagonist, fluorescence): 204 nM
N=C(N)NCCC[C@H](NC(=O)[C@@H]1CSSC[C@H](NC(=O)[C@H](Cc2ccc3ccccc3c2)NC(=O)[C@H](CCCNC(=N)N)NC(=O)[C@H](CCCNC(=N)N)NC(=O)CN2CCN(CC(=O)O)CCN(CC(=O)O)CCN(CC(=O)O)CC2)C(=O)N[C@@H](Cc2ccc(O)cc2)C(=O)N[C@@H](CCCNC(N)=O)C(=O)N[C@@H](CCCCN)C(=O)N[C@H](CCCCN)C(=O)N2CCC[C@H]2C(=O)N[C@@H](Cc2ccc(O)cc2)C(=O)N[C@@H](CCCNC(=N)N)C(=O)N[C@@H](CCCNC(N)=O)C(=O)N1)C(N)=O — IC50 (ligand displacement in cells, radioligand): 68 nM
COc1ccccc1N1CCN(c2nc(Nc3ccc(C)cc3C)c3nccnc3n2)CC1 — IC50 (β-arrestin recruitment): ~30000 nM
CC(=O)[O][Cu+].c1ccc(CN2CCN3CCN(CC2)CCN(Cc2ccccc2)CC3)cc1 — IC50 (ligand displacement, flow cytometry): 44.5 nM
COc1ccccc1-c1nnc2n1N=C(c1ccc(F)cc1)CS2 — EC50 (β-arrestin recruitment, agonist): > 80000 nM
N=C(N)NCCC[C@@H]1NC(=O)[C@H](CCCNC(=O)c2ccc(F)cc2)NC(=O)[C@@H](Cc2ccc(O)cc2)NC(=O)CNC(=O)[C@H](Cc2ccc3ccccc3c2)NC1=O — IC50: 9 ± 1 nM
N=C(N)NCCC[C@@H]1NC(=O)[C@@H]2CSSC[C@H](NC(=O)[C@H](Cc3ccc4ccccc4c3)NC(=O)[C@H](CCCNC(=N)N)NC(=O)[C@H](CCCNC(=N)N)NC(=O)[C@H]3CCCN3C(=O)CNC1=O)C(=O)N[C@@H](Cc1ccc(O)cc1)C(=O)N[C@@H](CCC(N)=O)C(=O)N[C@@H](CCCCN)C(=O)N1CCC[C@@H]1C(=O)N1CCC[C@H]1C(=O)N[C@@H](Cc1ccc(O)cc1)C(=O)N[C@@H](CCCNC(=N)N)C(=O)N[C@@H](CCCNC(N)=O)C(=O)N2 — IC50: 0.087 nM
CC(=O)[O][Cu+].CN1CCCN2CCN(CCCN(Cc3ccccc3)CC2)CC1 — IC50 (ligand displacement, flow cytometry): ~10 nM and 12.4 nM
CCOc1ccccc1-c1nnc2n1N=C(c1ccc(O)cc1)CS2 — EC50 (β-arrestin recruitment, agonist): 1280 nM
CCc1noc(CN(C)Cc2cn(-c3ccccc3)nc2-c2ccc(Cl)cc2)n1 — IC50 (β-arrestin recruitment): ~16000 nM
COc1ccccc1-c1nnc2n1N=C(c1ccccc1)CS2 — EC50 (β-arrestin recruitment, agonist): > 80000 nM
CCc1noc(CN(CCN(Cc2nc(CC)no2)c2ccccc2)c2ccccc2)n1 — IC50 (β-arrestin recruitment): ~2000 nM
